Published values from different studies.
Parts stem from different laboratories: compare values within a part only. “And” joins repeats or separate records; there may be more than shown.

Study 1
Target: Interferon regulatory factor 3, full length, phosphomimetic (IRF3, Homo sapiens, UniProt Q14653, residues 1-427, S386D/S396D/S398D/S402D/T404D/S405D)
UniProt Q14653, sequence (whole entry, unmodified, looked up): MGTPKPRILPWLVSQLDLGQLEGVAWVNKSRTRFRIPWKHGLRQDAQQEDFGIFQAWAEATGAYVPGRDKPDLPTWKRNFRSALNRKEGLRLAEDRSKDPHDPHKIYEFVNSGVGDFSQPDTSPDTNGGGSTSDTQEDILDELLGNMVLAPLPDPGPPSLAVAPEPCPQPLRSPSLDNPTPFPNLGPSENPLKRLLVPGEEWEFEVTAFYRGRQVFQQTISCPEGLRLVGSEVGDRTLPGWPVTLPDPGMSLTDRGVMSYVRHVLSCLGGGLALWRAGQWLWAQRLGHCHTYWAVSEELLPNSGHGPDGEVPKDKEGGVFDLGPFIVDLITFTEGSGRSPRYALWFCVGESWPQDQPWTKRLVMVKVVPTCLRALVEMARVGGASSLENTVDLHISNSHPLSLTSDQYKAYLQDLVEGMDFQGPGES
Technique: protein-binding microarray
Form: double-stranded DNA, one strand shown
Medium: in vitro
Concentration: 2540 nM top
Notes: 60-bp whole probe
With: salmon DNA 0.4 mg/ml
Reference: random background probes
Direction: higher = stronger binding
Endpoint: fitted relative affinity
Constant ends, left off below: GCCTAGCAC … GTCTTGATTCGCTTGACGCTGCTG
GACTGTATCGGGTTTCGGGACGTGCTA: 2.8 z-score
GACGGACTGGGTATCGGGCCGTGCTAG: -0.552 z-score
GACGGTTTCGTCACTGGGGACGTGCTA: 2.52 z-score
GACCGTATCGGGTTTCGGGACGTGCTA: 3.33 z-score
GACGAACTGAGTTTCGGGACGTGCTAG: 2.27 z-score
CACGGTTTCGACTTTCGGGACGTGCTA: 3.41 z-score
AGTGGGGAGGGAGAGAATCCGTGCTAG: -0.551 z-score
TTAGATTTCAGTTTCCATTAGTGCTAG: 6.31 z-score
GACGGTATCGGACTGTGGACGTGCTAG: 1.65 z-score
TGAGGTTTCCTTATCCTTTAGTGCTAG: 7.45 z-score
GACGGACTGGACTTTCGGTACGTGCTA: 1.17 z-score

Study 2
Target: RNA binding protein fox-1 homolog 2, RRM domain, GST-SBP tag (RBFOX2, Homo sapiens, UniProt O43251-10, residues 100-194)
Technique: RNA Bind-n-Seq
Form: RNA
Medium: in vitro
Concentration: 365 nM
Notes: natural RNA segment, single round, ends assumed
Reference: no-protein control
Direction: higher = stronger binding
Endpoint: RBNS enrichment (R)
Target sequence (chain): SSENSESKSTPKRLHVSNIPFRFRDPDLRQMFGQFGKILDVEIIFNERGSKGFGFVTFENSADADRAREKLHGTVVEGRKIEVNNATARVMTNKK
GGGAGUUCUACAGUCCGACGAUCUGCUAGGGGGAUUCAGGGAAGACCCGUGUUACCAGCUCUUACCCUUUAUCUGGACAGCUCUCCUACCCUGUAUCUUCUCCUCAGAUCUGAGGAUAGCAGGCUGGACUAUUUGGAAUUCUCGGGUGCCAA: 0.291
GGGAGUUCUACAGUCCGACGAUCAGGCUCUGCGUGUGGUCCGUAUGGAAAGCCUGGUAGCCCUGCGAGUUAAGUACUGCUUCCAUUCAUUGUUUACGCUGGAAUUUUUCUCCCCAUGGAAUGUAAGUAAAACUUGGAAUUCUCGGGUGCCAA: 2
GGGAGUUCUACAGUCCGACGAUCACGCUGCUCAUGUCCCCUCUCCCUCCAUCUGAGAAGCAGAAGCGGCCAGUGUGCCUCAAGGCCCAGGAUGGAAGACUCUCAACUCAUUCUUGCCUUACUACAGUGAUGGUUGGAAUUCUCGGGUGCCAA: 0.236
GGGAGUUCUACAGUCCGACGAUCCAACACUGACCUGGGGCCUUUACAAAUGGUUGCUCUCCUCCAUCUUCCCAGGGCUGCGGUCCUGGUGUCUACUGCCGGCCGGCUGAGUCUGCGUGGGCUUUCUGUCUCUCUGGAAUUCUCGGGUGCCAA: 0.253
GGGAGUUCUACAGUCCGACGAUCAGACUUUUGCCAAAGCUCUUAUUUUUUUUCUAAAUCUCUCCAGAAAAAAAUUGCAAGUGAUUAGAUUCAAUUAUUGAUUUAUUUACUUCUACUUUGUAUCCAUGACUUCUUGGAAUUCUCGGGUGCCAA: 0.782
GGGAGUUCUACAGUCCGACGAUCUUCCUUUUCCACGAACCUCUUCUGUACUUUGAUUGUAAUAGGUUGGCUCUUACACCCAUUCCAAAUGCAGUUUAUUUUUAGACCCGAUUGCAAAUAGUGAUGUAGUUUUAUGGAAUUCUCGGGUGCCAA: 0.743
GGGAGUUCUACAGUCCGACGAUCUUUCCCUUUUUUUGUGGGGGAGGGUUGGUGGUAUAUUUUUCCCCUCUUUUUUCCUUCCUCUCCUACAUCUCCCUUUUCCCCCGAUCCAAGUUGUAGAUGGAAUAGAAGCCUGGAAUUCUCGGGUGCCAA: 0.533
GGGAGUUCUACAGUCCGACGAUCCUGUGGGCAAGGUCGAUGCAAUGCCUGCACUACAGGCCUGUCUUCUGUGGAUCUCUCUCCUUGGCCUUCAGUCCCUGCAGUAUUUUACUGUCAGAUAGCAUGUGGUGCCUUGGAAUUCUCGGGUGCCAA: 3.99

Study 3
Target: Prothrombin, mature alpha-thrombin (F2, Homo sapiens, UniProt P00734)
Technique: aptamer microarray, sandwich
Form: DNA with 2'F-ANA
Medium: in vitro
Concentration: 200 nM
Notes: whole 15-mer aptamer, many near background
With: Cy3 exosite-II aptamer, 400 nM
Direction: higher = stronger binding
Endpoint: mean fluorescence intensity
Sequence: GGTTGGTGTGGTTGG
2'F-ANA at 7 9 10 11 12 14 15: 106 a.u.
2'F-ANA at 1 3 4 6 8 10 14 15: 54.1 a.u.
2'F-ANA at 1 3 4 5 7 8 9 10 14 15: 60.5 a.u.
2'F-ANA at 1 2 6 7 8 10: 53.8 a.u.
2'F-ANA at 1 2 4 5 6 7 14: 56.8 a.u.
2'F-ANA at 2 3 5 6 7 8 11 14: 52.2 a.u.
2'F-ANA at 1 3 4 10 12: 90 a.u.
2'F-ANA at 1 2 3 4 9 11 14: 59.3 a.u.
2'F-ANA at 2 3 4 6 8 13 14 15: 374 a.u.

Further values, each from its own experiment
PhoQ, residues 284 288 289 292 302 303 SVTLVV — fold induction (PhoP, residues 12 14 15 18 19 LWHSL (Escherichia coli, UniProt P23836); Sort-seq, refers to: YFP reporter; E. coli; PhoQ-PhoP variant library, with: 10 µM Mg2+; reference: high Mg2+ state, higher = stronger signaling): 9.66 and 19.8

Some of these lines once more (study 1):
GACGGACTGGACTTTCGGTACGTGCTA: 1.17 z-score
AGTGGGGAGGGAGAGAATCCGTGCTAG: -0.551 z-score
GACGGACTGGGTATCGGGCCGTGCTAG: -0.552 z-score
GACGGTATCGGACTGTGGACGTGCTAG: 1.65 z-score
